Measured values gathered from unrelated publications.
Lines come from different studies, so protocols differ.
Target: Acetylcholinesterase (ache, Electrophorus electricus, UniProt O42275)
UniProt O42275, sequence (whole entry, looked up): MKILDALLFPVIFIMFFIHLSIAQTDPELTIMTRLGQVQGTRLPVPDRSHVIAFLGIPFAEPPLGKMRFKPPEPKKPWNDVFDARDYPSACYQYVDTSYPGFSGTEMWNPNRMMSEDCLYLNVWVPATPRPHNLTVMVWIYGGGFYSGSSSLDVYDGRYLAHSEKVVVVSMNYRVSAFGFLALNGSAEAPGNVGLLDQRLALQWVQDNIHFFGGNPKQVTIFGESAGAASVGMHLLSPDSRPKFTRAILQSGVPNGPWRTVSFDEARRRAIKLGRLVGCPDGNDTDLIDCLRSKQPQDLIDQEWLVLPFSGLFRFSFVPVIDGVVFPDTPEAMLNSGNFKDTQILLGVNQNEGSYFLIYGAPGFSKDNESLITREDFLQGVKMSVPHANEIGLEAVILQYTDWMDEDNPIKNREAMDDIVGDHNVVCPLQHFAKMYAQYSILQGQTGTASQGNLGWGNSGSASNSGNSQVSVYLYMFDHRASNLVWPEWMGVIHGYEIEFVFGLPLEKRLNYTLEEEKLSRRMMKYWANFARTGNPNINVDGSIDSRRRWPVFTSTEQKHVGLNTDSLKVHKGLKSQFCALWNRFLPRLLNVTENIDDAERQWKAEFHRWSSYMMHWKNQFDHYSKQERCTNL

COc1ccc2c(c1OC)CN1CCc3cc(O)c(O)cc3[C@@H]1C2 — IC50 (enzyme activity, inhibitor, Ellman; up to 0.1 µg/mL): inactive
Cc1ccc(CNc2c(NC3CCN(Cc4ccccc4)CC3)c(=O)c2=O)cc1 — inhibition (enzyme activity, inhibitor, Ellman; 25 µM): 60.3%
Clc1ccc(Nc2c3c(nc4ccccc24)CCCC3)cc1 — inhibition (enzyme activity, inhibitor, Ellman; 50 µM): 44.4%
O=C(/C=C/c1cccc(F)c1)c1cc2ccccc2oc1=O — remaining activity (enzyme activity, inhibitor; 10 µM): 75.5%
O=c1oc2c(CNCCc3cccc(F)c3)c(O)ccc2c2c1CCC2 — propidium displacement (peripheral site binding; 3 µM): 100%
COc1ccc(CNc2c(NC3CCN(Cc4ccccc4)CC3)c(=O)c2=O)cc1 — inhibition (enzyme activity, inhibitor, Ellman; 12.5 µM): 61%
O=C(/C=C/c1ccccc1)c1cc2ccccc2oc1=O — remaining activity (enzyme activity, inhibitor; 10 µM): 86.8%
COc1ccc(Nc2c3c(nc4ccc(Cl)cc24)CCCC3)nc1 — inhibition (enzyme activity, inhibitor, Ellman; 50 µM): 72.5%
O=c1c(NCCc2ccc(O)cc2)c(NC2CCN(Cc3ccccc3)CC2)c1=O — inhibition (enzyme activity, inhibitor, Ellman; 12.5 µM): 48.3%
O=C(/C=C/c1ccccc1Br)c1cc2ccccc2oc1=O — remaining activity (enzyme activity, inhibitor; 10 µM): 78.2%
O=C1Nc2ccccc2/C1=N/NC(=O)c1cc(-c2ccc3c4c(cccc24)CC3)n[nH]1 — inhibition (10 µM): > 20%
COc1ccc(Nc2c3c(nc4cc(C)ccc24)CCCC3)nc1 — inhibition (enzyme activity, inhibitor, Ellman; 50 µM): 64.1%
O=C(/C=C/c1cccc(Br)c1)c1cc2ccccc2oc1=O — remaining activity (enzyme activity, inhibitor; 10 µM): 73.7%
Cc1nc(-c2ccc(Cl)cc2)nc2sc3c(=O)n(CCN4CCOCC4)cnc3c12 — propidium displacement (peripheral site binding; 0.24 µM): 0%
O=c1c(NCc2ccccc2)c(NC2CCN(Cc3ccccc3)CC2)c1=O — inhibition (enzyme activity, inhibitor, Ellman; 12.5 µM): 38.7%
Fc1ccc(Nc2c3c(nc4ccccc24)CCCC3)cc1 — inhibition (enzyme activity, inhibitor, Ellman; 100 µM): 67.4%
COc1ccc([C@@H]2N=NC(NCCc3c[nH]c4ccc(C)cc34)=NC2=O)cc1 — propidium displacement (peripheral site binding; 0.24 µM): 29%
Cc1ccc(CCNc2c(NC3CCN(Cc4ccccc4)CC3)c(=O)c2=O)cc1 — inhibition (enzyme activity, inhibitor, Ellman; 12.5 µM): 43.9%
Cc1cc(O)c2c(c1)C(=O)c1c(O)ccc(O)c1C2=O — propidium iodide displacement (peripheral anionic site binding, propidium iodide competition; 10 µM): 35.9%
COc1ccc2c(c1OC)C(=O)c1nccc3cc4c(c-2c13)OCO4 — IC50 (enzyme activity, inhibitor, Ellman; up to 0.1 µg/mL): inactive
COCCN1COc2c(cc3c4c(c(=O)oc3c2C)CCC4)C1 — propidium displacement (peripheral site binding; 1 µM): 42%
COc1ccnc(Nc2c3c(nc4ccc(Cl)cc24)CCCC3)c1 — inhibition (enzyme activity, inhibitor, Ellman; 50 µM): 33.6%
O=c1c(Nc2ccc(O)cc2)c(NC2CCN(Cc3ccccc3)CC2)c1=O — inhibition (enzyme activity, inhibitor, Ellman; 12.5 µM): 53.5%
Cc1ccc2c(Nc3ccc4ccccc4n3)c3c(nc2c1)CCCC3 — inhibition (enzyme activity, inhibitor, Ellman; 50 µM): 25.3%
COc1ccc(CCNc2c(NC3CCN(Cc4ccccc4)CC3)c(=O)c2=O)cc1OC — inhibition (enzyme activity, inhibitor, Ellman; 12.5 µM): 50.9%
COc1ccnc(Nc2c3c(nc4cc(C)ccc24)CCCC3)c1 — inhibition (enzyme activity, inhibitor, Ellman; 50 µM): 76%
O=C(/C=C/c1cccc(Cl)c1)c1cc2ccccc2oc1=O — remaining activity (enzyme activity, inhibitor; 10 µM): 77.1%
Cc1ccc(Nc2c(NC3CCN(Cc4ccccc4)CC3)c(=O)c2=O)cc1 — inhibition (enzyme activity, inhibitor, Ellman; 12.5 µM): 55.6%
COc1ccc2cc(Nc3c4c(nc5ccccc35)CCCC4)ccc2c1 — inhibition (enzyme activity, inhibitor, Ellman; 50 µM): 57.7%

Excerpt of the above:
COc1ccc([C@@H]2N=NC(NCCc3c[nH]c4ccc(C)cc34)=NC2=O)cc1 — propidium displacement (peripheral site binding; 0.24 µM): 29%
